Measurements of several laboratories.
Lines come from different studies, so protocols differ. ± gives the spread as reported.
Cell line: HEK293

Structure (SMILES)	assay	conditions	how to read	endpoint	value
Cc1[nH][n+]([Pd-2]([Br])([Br])[n+]2[nH]c(C)c(CSC3CCCCC3)c2C)c(C)c1CSC1CCCCC1	cytotoxicity, 7-AAD flow cytometry	24 h		IC50	850 ± 70 nM
CC(C)Cc1ccc(C(C)C(=O)N/N=C/c2ccc(OCC(=O)N/N=C/c3c(O)ccc4ccccc34)cc2)cc1 (stereo not drawn)	MTT	10 µM, 48 h		viability	42.1%
NCC1OC(OC2C(N)CC(N)C(OC3OC(CO)C(O)C(N)C3O)C2OCCCCCCCCCCCCn2cc(CNc3nc(NCc4cn(CCCCCCCCCCCCOC5C(OC6OC(CN)C(O)CC6N)C(N)CC(N)C5OC5OC(CO)C(O)C(N)C5O)nn4)nc(NCc4cn(CCCCCCCCCCCCOC5C(OC6OC(CN)C(O)CC6N)C(N)CC(N)C5OC5OC(CO)C(O)C(N)C5O)nn4)n3)nn2)C(N)CC1O (stereo not drawn)	cell growth or viability, resazurin	27 µM, 48 h		viability	16%
COc1cc(C2CC(=O)Nc3nc(N)[nH]c(=O)c32)ccc1O (stereo not drawn)	MTT	concentration not given, 96 h		viability reduction	~10%
C/C(=N\NC(=N)N)c1nnn(-c2ccc(S(=O)(=O)NCC(C)C)cc2)c1C	cytotoxicity, MTT			IC50	18900 nM
CC(C)[C@@H](C)Nc1c(-c2c(F)cc(C#CCCN)cc2F)c(Cl)nc2ncnn12	cell growth or viability, ATP luminescence	48 h		CC50	214 nM
COC(=O)[C@H](Cc1ccccc1)NC(=O)[C@H](Cc1ccccc1)N=Cc1ccc(C=N[C@@H](Cc2ccccc2)C(=O)N[C@@H](Cc2ccccc2)C(=O)OC)cc1	MTT	24 h, 37 °C, self-assembled structures		highest non-toxic concentration	≤ 75 µM
C[C@@H](Nc1c(-c2c(F)cc(C#CCCN)cc2F)c(Cl)nc2ncnn12)C(C)(C)C	cell growth or viability, ATP luminescence	48 h		CC50	266 nM
NC[C@H]1O[C@H](O[C@H]2[C@H](OCCCCCCCCCCCCn3cc(CNc4nc(NCc5cn(CCCCCCCCCCCCO[C@@H]6[C@@H](O)[C@H](N)C[C@H](N)[C@H]6O[C@H]6O[C@H](CN)[C@@H](O)C[C@H]6N)nn5)nc(NCc5cn(CCCCCCCCCCCCO[C@@H]6[C@@H](O)[C@H](N)C[C@H](N)[C@H]6O[C@H]6O[C@H](CN)[C@@H](O)C[C@H]6N)nn5)n4)nn3)[C@@H](O)[C@H](N)C[C@@H]2N)[C@H](N)C[C@@H]1O	cell growth or viability, resazurin	48 h		CC50	17800 nM
CC(C)Cc1ccc(C(C)C(=O)N/N=C/c2ccc(OCC(=O)N/N=C/c3cccc(O)c3)cc2)cc1 (stereo not drawn)	MTT	10 µM, 48 h		viability	58.6%
CC(C)[C@H](C)Nc1c(-c2c(F)cc(OCCCN(C)C)cc2F)c(Cl)nc2ncnn12	cell growth or viability, ATP luminescence	48 h		CC50	70 nM
CC(C)Cc1ccc(C(C)C(=O)NN=Cc2ccc(OCC(=O)NN=Cc3cccc([N+](=O)[O-])c3)cc2)cc1 (stereo not drawn)	MTT	10 µM, 48 h		viability	112%
C[C@H](Nc1c(-c2c(F)cc(OCCCN(C)C)cc2F)c(Cl)nc2ncnn12)C1CC1	cell growth or viability, ATP luminescence	48 h		CC50	15.4 nM
O=C(NCCCCCCCCCC[P+](c1ccccc1)(c1ccccc1)c1ccccc1)c1ccc(O)c(O)c1	cell growth or viability, resazurin	20 h		CC50	9.07 µg/mL
COc1ccc(C(=O)/C=C(\O)C(F)(F)C(F)(F)F)cn1	cell viability	24 h, 10% FBS		EC50	~10000 nM
COC(=O)[C@H](Cc1ccccc1)NC(=O)[C@H](Cc1ccccc1)NC(=O)CCC(=O)N[C@@H](Cc1ccccc1)C(=O)N[C@@H](Cc1ccccc1)C(=O)OC	MTT	24 h, 37 °C, self-assembled structures		highest non-toxic concentration	≤ 75 µM
CC(=O)NCCCOc1cc(F)c(-c2c(Cl)nc3ncnn3c2N[C@@H](C)C(F)(F)F)c(F)c1	cell growth or viability, ATP luminescence	48 h		CC50	32.3 nM
CC(C)Cc1ccc(C(C)C(=O)N/N=C/c2ccc(OCC(=O)N/N=C/c3ccc([N+](=O)[O-])cc3)cc2)cc1 (stereo not drawn)	MTT	100 µM, 48 h		viability	45.2%
CN(C)CCCOc1cc(F)c(-c2c(Cl)nc3ncnn3c2NCC(C)(C)C)c(F)c1	cell growth or viability, ATP luminescence	48 h		CC50	22.7 nM
NCC1OC(OC2C(N)CC(N)C(OC3OC(CO)C(O)C(N)C3O)C2OCCCCn2cc(CNc3nc(NCc4cn(CCCCOC5C(OC6OC(CN)C(O)CC6N)C(N)CC(N)C5OC5OC(CO)C(O)C(N)C5O)nn4)nc(NCc4cn(CCCCOC5C(OC6OC(CN)C(O)CC6N)C(N)CC(N)C5OC5OC(CO)C(O)C(N)C5O)nn4)n3)nn2)C(N)CC1O (stereo not drawn)	PrestoBlue	2 µM, 48 h	relative to: untreated	viability	90%
C[C@@H](Nc1c(-c2c(F)cc(OCCCO)cc2F)c(Cl)nc2ncnn12)C(C)(C)C	cell growth or viability, ATP luminescence	48 h		CC50	18.1 nM
Cc1[nH][n+]([Pd-2]([Cl])([Cl])[n+]2[nH]c(C)c(CSCc3ccccc3)c2C)c(C)c1CSCc1ccccc1	cytotoxicity, 7-AAD flow cytometry	24 h		IC50	920 ± 90 nM
CC(Nc1c(-c2c(F)cc(OCCCN(C)C)cc2F)c(Cl)nc2ncnn12)C(C)(C)C (stereo not drawn)	cell growth or viability, ATP luminescence	48 h		CC50	10.8 nM
COc1cccc(/C=N/NC(=O)COc2ccc(/C=N/NC(=O)C(C)c3ccc(CC(C)C)cc3)cc2)c1O (stereo not drawn)	MTT	40 µM, 48 h		viability	56%

For quick reference, copied from above:
Structure (SMILES)	assay	conditions	how to read	endpoint	value
CC(C)[C@H](C)Nc1c(-c2c(F)cc(OCCCN(C)C)cc2F)c(Cl)nc2ncnn12	cell growth or viability, ATP luminescence	48 h		CC50	70 nM
O=C(NCCCCCCCCCC[P+](c1ccccc1)(c1ccccc1)c1ccccc1)c1ccc(O)c(O)c1	cell growth or viability, resazurin	20 h		CC50	9.07 µg/mL
COC(=O)[C@H](Cc1ccccc1)NC(=O)[C@H](Cc1ccccc1)NC(=O)CCC(=O)N[C@@H](Cc1ccccc1)C(=O)N[C@@H](Cc1ccccc1)C(=O)OC	MTT	24 h, 37 °C, self-assembled structures		highest non-toxic concentration	≤ 75 µM
